# Experimental data gathered from unrelated publications.
# Compare with care: the assays were run in different laboratories. “And” joins repeats or separate records; there may be more than shown. ± marks the error that the study gave.
SMILES,test,system,setting,how to read,quantity,value
NC(=O)c1[nH]cnc1N,,"leiomyosarcoma patients, plasma","intravenous, dose not given, cycle 2 day 1, added: dacarbazine co-administered",baseline: cycle 1 day 1,AUC(0-24h) reduction,61.7%
C[C@@H](Nc1cc(F)cc(F)c1)c1cc(C(=O)N(C)C)cc2c(=O)cc(N3CCOCC3)oc12,measured: Colitis,advanced solid tumour patients,"oral, dose not given, dose finding",,related serious adverse events,4.8%
CCc1cc(C(=O)NC)c2nccc(N3CCc4c(cc(Cn5ccnc5)cc4-c4cn(C)nc4C(F)(F)F)C3=O)c2c1,measured: HGB,Sprague Dawley rat,"oral, 100 mg/kg once daily, 7 days",baseline: vehicle,change in clinical chemistry or haematology parameter,0%
CCN1/C(=C/C(C)=O)Sc2ccc(F)cc21,,cynomolgus monkey,"oral, 30 mg/kg, 0.5 h post-dose",baseline: pre-dose,heart rate change,120 ± 17.3%
C=CC[C@@H]1/C=C(\C)C[C@H](C)C[C@H](OC)[C@H]2O[C@@](O)(C(=O)C(=O)N3CCCC[C@H]3C(=O)O[C@H](/C(C)=C/[C@@H]3CC[C@@H](O)[C@H](OC)C3)[C@H](C)[C@@H](O)CC1=O)[C@H](C)C[C@@H]2OC,,healthy adults,"oral, geometric mean",,Vz/F,881 L and 1370 L
CC1(C)CCC(CN2CCN(c3ccc(C(=O)NS(=O)(=O)c4ccc(NCC5CCOCC5)c([N+](=O)[O-])c4)c(Oc4cnc5[nH]ccc5c4)c3)CC2)=C(c2ccc(Cl)cc2)C1,UPLC-MS/MS,"non-responders, good/moderate prognosis","oral, dose not given, 6 h, normalised to dose per body weight",,dose-normalised C6 (C6/D),0.333 ± 0.164 µg/mL per mg/kg
C=CC[C@@H]1/C=C(\C)C[C@H](C)C[C@H](OC)[C@H]2O[C@@](O)(C(=O)C(=O)N3CCCC[C@H]3C(=O)O[C@H](/C(C)=C/[C@@H]3CC[C@@H](O)[C@H](OC)C3)[C@H](C)[C@@H](O)CC1=O)[C@H](C)C[C@@H]2OC,,"Wistar Kyoto rat, male, plasma","ip, 0.5 mg/kg/day, day 18",,plasma urea level,6.2 ± 0.8 mmol/L
CN1CCN(c2cccc3c2CCN(C(=O)/C=C/c2c(-n4cnnn4)ccc(Cl)c2F)[C@@H]3C(=O)Nc2ccc(C(=O)O)cc2)C(=O)C1,,healthy human subjects,"intravenous infusion, 1.5 mg/h, 2 h",,subjects with nausea,33.3%
CCCS(=O)(=O)Nc1ccc(F)c(C(=O)c2c[nH]c3ncc(-c4ccc(Cl)cc4)cc23)c1F,,FaSSIF,literature solubility over dose,,dose-adjusted solubility,5.63e-06 mL⁻¹
Cc1ccc([C@@H]2O[C@H](CO)[C@@H](O)[C@H](O)[C@H]2O)cc1Cc1ccc(-c2ccc(F)cc2)s1,,Japanese type 2 diabetes patients,"400 mg, day 17, 24 h urine collection",baseline: baseline,urinary chloride excretion change,-8.95 mEq
O=C(O)CC(O)(CC(=O)O)C(=O)O,,Wistar rat,"1000 mg/kg, week 4",,body weight reduction,~62%
C[C@]12C[C@@]34C=CC(=O)[C@@](C)(CCC(=O)Nc5c(O)ccc(C(=O)S[C@H]6CC(=O)[C@@](C)(CCC(=O)Nc7c(O)ccc(C(=O)O)c7O)[C@@H]7[C@@H]8C[C@@H]9C[C@]67C[C@]9(C)O8)c5O)[C@@H]3[C@H](C[C@@H]1C4)O2,,"C57BL/6 mice, plasma","intravenous, 10 mg/kg",,clearance,11 mL/min/kg
C=CCN1CC(=O)N2[C@@H](Cc3ccc(O)cc3F)C(=O)N(Cc3cccc(N4CC(N5CCN(CC)CC5)C4)n3)C[C@@H]2N1C(=O)NCc1ccccc1,measured: ALT increased,human advanced solid tumours,"concentration not given, dose escalation grade ≥3",,treatment-related adverse events,0%
CCn1c(=O)c(-c2cc(NC(=O)Nc3ccccc3)c(F)cc2Br)cc2cnc(NC)cc21,measured: lipase increased,"human, severe hepatic impairment","oral, 50 mg single dose",,participants with drug-related TEAE,100%
Cc1ccc(C(=O)N(CCCN)C(c2nc3snc(C)c3c(=O)n2Cc2ccccc2)C(C)C)cc1 (stereo not shown),,human patients,"intravenous, 10 mg/day",,grade ≥3 dysphagia patients,33%
C[C@@H]1COCCN1c1cc(C2([S@](C)(=N)=O)CC2)nc(-c2cc[nH]c3nccc2-3)n1,,Japanese advanced solid tumour patients,"oral, 240 mg twice daily, CTCAE grade ≥3",,Pyelonephritis incidence,0%
CC[C@H](C)[C@H](NC(=O)[C@H](CO)NC(=O)[C@H](CCCNC(=N)N)NC(C)=O)C(=O)N[C@H]1CSSC[C@@H](C(=O)N[C@H](C(N)=O)[C@@H](C)O)NC(=O)[C@H](CCCNC(=N)N)NC(=O)[C@H](Cc2c[nH]cn2)NC(=O)[C@H](Cc2cccc3ccccc23)NC(=O)CNC(=O)[C@H](Cc2c[nH]c3ccccc23)NC(=O)[C@H](CC(=O)O)NC(=O)[C@H](CCC(N)=O)NC(=O)[C@H](Cc2c[nH]c3ccccc23)NC(=O)[C@H](C(C)C)NC1=O,"isocratic RP-HPLC, C18","32% acetonitrile, phosphate pH 7.4, 1% TFA",25 °C,,retention factor,2.612 ± 0.005
O=C(O)CCC(=O)O.[2H]C([2H])([2H])Oc1cc(C)c2[nH]ccc2c1CN1CC[C@@H](C2CC2)C[C@H]1c1ccc(C(=O)O)cc1,,healthy Chinese subjects,"100 mg twice daily, multiple ascending dose",,TEAE elevated monocyte,0%
CC(C(=O)NCC(=O)NCC(CNC(=O)CNC(=O)C(C)N1CCN(CC(=O)[O-])CCN(CC(=O)[O-])CCN(CC(=O)[O-])CC1)(CNC(=O)CNC(=O)C(C)N1CCN(CC(=O)[O-])CCN(CC(=O)[O-])CCN(CC(=O)[O-])CC1)CNC(=O)CNC(=O)C(C)N1CCN(CC(=O)[O-])CCN(CC(=O)[O-])CCN(CC(=O)[O-])CC1)N1CCN(CC(=O)[O-])CCN(CC(=O)[O-])CCN(CC(=O)[O-])CC1.[Gd+3].[Gd+3].[Gd+3].[Gd+3] (stereo not shown),,"cynomolgus monkey, kidney medulla","dose not given, day 58",,lanthanide concentration,3.6 ± 1.2 nmol/g
NS(=O)(=O)c1ccc(CNc2nc(Nc3cccc(NC(=O)N4CCCC4)c3)ncc2C2CC2)cc1,PAMPA,PBS,"5 h, pH 7.4",,effective permeability,2.6 ×10⁻⁶ cm/s
Cc1cc(Nc2ncnc3ccc(NC4=NC(C)(CO)CO4)cc23)ccc1Oc1ccn2ncnc2c1 (stereo not shown),,"human, plasma","tucatinib, day 10, added: rifampin once daily",,AUC(0-inf) (geometric mean),328 ng·h/mL
CC[C@@H]1CN(C(=O)NCC(F)(F)F)C[C@@H]1c1cnc2cnc3[nH]ccc3n12,population PK model,"healthy, RA and CD subjects, plasma","oral, immediate-release formulation",,Vc/F,141 L
O=C(Nc1nc2cccc(-c3ccc(CN4CCS(=O)(=O)CC4)cc3)n2n1)C1CC1,measured: headache,human rheumatoid arthritis patients,"oral, 150 mg once daily, 4 weeks, regardless of relatedness",,treatment-emergent adverse events,0%
O=C(Nc1ccc(OC(F)(F)Cl)cc1)c1cnc(N2CC[C@@H](O)C2)c(-c2ccn[nH]2)c1,"per treatment cycle, measured: bilirubin increase",human patients,"oral, dose not given, 28 day cycle, dose-finding study",,grade ≥2 event rate,1.3%
CC(C)[C@@H](CN1CC[C@@](C)(c2cccc(O)c2)[C@@H](C)C1)NC(=O)[C@H]1Cc2ccc(O)cc2CN1,,"Sprague-Dawley rat, plasma","intraperitoneal, 5 mg/kg",,AUCtotal,1320 ng·h/mL
C=CC(=O)N1CCC(c2ccc(C(N)=O)c(-c3ccc(Oc4ccccc4)cc3)n2)CC1,CTCAE 4.03,patients with relapsed/refractory MCL,"oral, dose not given, total",,incidence of grade ≥3 TRAEs,6.3%
CNC(=O)c1ccc(-c2cnc3ncc(Cc4ccc5ncccc5c4)n3n2)cc1F,,Japanese patients,"oral, 400 mg, grade 3/4",,Pyelonephritis dose reduction/interruption,1%
Cc1cc(-c2nnc(N)nc2-c2ccc(F)cc2)cc(Cl)n1,"measured: obliterative bronchiolitis, all grades",male IO-naive mCRPC patients,"oral, dose not given",,"incidence of AE, immune-mediated, treatment-related",0%
Cc1ccc(Sc2ccccc2N2CCNCC2)c(C)c1,measured: abdominal pain,healthy adult men,"oral, 20 mg daily, 12 days",,participants with TEAE,0%
NC1(C(=O)N[C@@H](CCO)c2ccc(Cl)cc2)CCN(c2nc[nH]c3nccc2-3)CC1,"LC-MS/MS, non-compartmental","human patients, plasma","160/320 mg cohort, cycle 0, median, added: enzalutamide",,Tmax,1 h
Cc1cc(-c2nccc3c2ccn3CC(=O)Nc2ccc(-c3cnccn3)cn2)ccn1,,human,"SAD part, single 40 mg dose",,subjects with grade 1 TEAE,16.7%
CCN1CCN(Cc2ccc(NC(=O)c3ccc(C)c(NC(=O)c4cncc(-c5cccs5)c4)c3)cc2C(F)(F)F)CC1,,"C57BL/6 mice, epithelial lining fluid","intraperitoneal, 20 mg/kg",,mean residence time,3.05 h
C=CC(=O)NC1CCN(c2ncc3ncnc(Nc4ccc(Oc5ccc6c(c5)ncn6C)c(C)c4)c3n2)CC1,measured: total radioactivity,"healthy male human, whole blood and plasma","oral, 60 mg, 10 h, geometric mean",,blood-to-plasma ratio,0.828
CO[C@H]1C[C@@H]2CC[C@@H](C)[C@@](O)(O2)C(=O)C(=O)N2CCCC[C@H]2C(=O)O[C@H]([C@H](C)C[C@@H]2CC[C@@H](OC(=O)NCCOCCOCCOCCOCCOCCOCCOCCOCCC(=O)N3CCc4cc(Cn5nc(-c6ccc7oc(N)nc7c6)c6c(N)ncnc65)ccc4C3)[C@H](OC)C2)C[C@@H](O)[C@H](C)/C=C(\C)[C@@H](O)[C@@H](OC)C(=O)[C@H](C)C[C@H](C)/C=C/C=C/C=C/1C,,"human patients, plasma","intravenous, 1.6 mg, cycle 1 day 15, weekly dosing",,AUClast,98.6 ng·h/mL
FC(F)(F)c1ccc(CNc2ccc(Cc3c[nH]c4ncc(Cl)cc34)cn2)cn1,measured: Vomiting,patients with advanced solid tumours,"oral, dose not given, grade 3 and 4, possibly related to drug",,adverse event incidence,4%
CCCC1CCC(c2ccc(OCC)c(F)c2F)CC1 (stereo not shown),,"rat, fetus","5000 ng/mL in perfusate, high dose, mixture of 21 LCMs",,fetal accumulation,1.35 ± 0.85 ng/g
O=C1NCCc2nc(OCc3cccc(F)c3)ccc21,measured: loss of Righting,Sprague-Dawley rat male,"oral, 100 mg/kg, 1 h",direction not given,Irwin test score,0
Cl.[2H]C([2H])([2H])CC(=O)c1cnc(NC(=O)C2CC2)cc1Nc1cccc(-c2ncn(C([2H])([2H])[2H])n2)c1OC,,"human, fasted, multiple dose","oral, 20 mg twice daily, tablet, day 14, geometric mean",,CL/F,10.4 L/h
CCc1nc(C(N)=O)c(Nc2ccc(N3CCC(N4CCN(C)CC4)CC3)c(OC)c2)nc1NC1CCOCC1,,"Japanese patients, plasma","oral, 120 mg, cycle 0 day -2, single dose, median",,AUC(0-24),2740 ng·h/mL
OC[C@H]1O[C@@H](c2ccc(Cl)c(Cc3ccc(O[C@H]4CCOC4)cc3)c2)[C@H](O)[C@@H](O)[C@@H]1O,,"Japanese type 1 diabetes patients, blood","2.5 mg, day 28",baseline: baseline,change in HDL cholesterol,3.31 mg/dL
Cn1cc(Nc2nccc(-c3ccc4c(c3)CN(C3COC3)CC[C@H]4NC(=O)c3cn(C(C)(C)C)nn3)n2)cn1,,"human, whole blood","150 mg twice daily, day 14",baseline: pre-dose baseline,lymphocyte count change,-2.21%
CC(=O)N[C@@H](CC(N)=O)C(=O)N[C@@H](CC(N)=O)C(=O)N[C@@H](CC(C)C)C(=O)N[C@H]1CSSC[C@@H](C(=O)N[C@H](C(N)=O)[C@@H](C)O)NC(=O)[C@H](CCCNC(=N)N)NC(=O)[C@H](Cc2c[nH]cn2)NC(=O)[C@H](Cc2cccc3ccccc23)NC(=O)CNC(=O)[C@H](Cc2c[nH]c3ccccc23)NC(=O)[C@H](CC(=O)O)NC(=O)[C@H](CCC(N)=O)NC(=O)[C@H](Cc2c[nH]c3ccccc23)NC(=O)[C@H](C(C)C)NC1=O,"isocratic RP-HPLC, C18","32% acetonitrile, phosphate pH 7.4, 1% TFA",25 °C,,retention factor,2.089 ± 0.006
CC#CC(=O)N1CC[C@@H](n2c(=O)n(-c3ccc(Oc4ccccc4)cc3)c3c(N)ncnc32)C1,,"human, fasting, plasma","oral, 320 mg once daily, cycle 1 day 28",,AUC(0-12h),5370 ± 1140 ng·h/mL
CO[C@@H]1[C@H](O)[C@@H](CO)O[C@H]1n1c([N+](=O)[O-])nc2c(=O)[nH]c(N)nc21,,citrate phosphate buffer,"0.5 mM, pH 5.00, 37 °C",,depurination half-life,26.4 h
CN1CCN(C(=O)[C@H](CCCN[C@@H]2C[C@H]2c2ccc(F)cc2)NC(=O)c2ccc(-n3ccnn3)cc2)CC1,,C57BL/6 mice,"oral, 40 to 60 mg/kg/day, 7 days",,mean platelet volume,increased
COCCOc1cnc2ccn([C@H](C)c3nnc4c(F)cc(-c5cnn(C)c5)cn34)c(=O)c2c1,,"patients, plasma","oral, 200 mg twice daily, day 1 predose, 400 per day",,Ctrough,1280 ng/mL
Cc1nc2cccc(OCC(C)(C)C(=O)NC(C)C)c2c(N)c1C(=O)O,,"female Sprague-Dawley rat, plasma","dietary, 60 mg/kg/day",baseline: day 90 over day 7,Cmax ratio,1.23
CCNCCCn1c2c(c3cc(OC)c(OC)cc3c1=O)C(=O)c1cc3c(nc1-2)OCO3,,"male CD1 mouse, plasma","intravenous, 1 mg/kg",,dose-normalized AUC(0-t),142 ng·h/mL
CCOCc1nc(O)c(-c2nnc(Cc3ccc(Cl)cn3)o2)c(O)c1-c1c(OC)cccc1OC,,"rat, plasma","subcutaneous infusion, 0.192 mg/kg/day, day 7 after surgery",,steady-state plasma concentration,102 nM
